Measurements pooled from the literature.
Numbers after ± are the reported error.

| Molecule | tested on | assay | test system | conditions | endpoint | result |
| --- | --- | --- | --- | --- | --- | --- |
| LIRQGTDYKHWPQIA | human CD4 T cells | AIM | peptide |  | responding donors | 15% |
| Nc1ncnc2c([C@@H]3N[C@H](CO)[C@@H](O)[C@H]3O)c[nH]c12 | Marburg virus | viral replication, antibody staining | HeLa, Musoke | 12.5 µM, 12 h | infected cells | 2% |
| IGINITRFQTLLALH | human CD4 T cells | AIM | peptide |  | responding donors | 9% |
| N[C@@H](CCCCNC(=O)OCc1ccc([N+](=O)[O-])cc1)C(=O)N1CCCC1 | Replicase polyprotein 1ab, main protease (rep, Severe acute respiratory syndrome coronavirus 2, UniProt P0DTD1) | viral replication, Gluc reporter | SARS-CoV-2 | 20 µM | inhibition | -0.432% |
| Cn1cnc(Cn2c(=O)[nH]/c(=N\c3cc4cn(C)nc4cc3Cl)n(Cc3cc(F)c(F)cc3F)c2=O)n1 |  |  | human, severe renal impairment | oral, 375 mg | anaemia TEAE, Severe severity | 0% |
| CC[C@H](C)[C@H](NC(=O)[C@H](CC(C)C)NC(=O)[C@H](Cc1c[nH]c2ccccc12)NC(=O)[C@H](CCC(N)=O)NC(=O)[C@@H](NC(=O)[C@H](Cc1ccccc1)NC(=O)[C@H](C)NC(=O)[C@H](CCCCNC(=O)COCCOCCNC(=O)COCCOCCNC(=O)CC[C@H](NC(=O)CCCCCCCCCCCCCCCCCCC(=O)O)C(=O)O)NC(=O)[C@H](CCC(N)=O)NC(=O)[C@H](C)NC(=O)[C@@H](NC(=O)[C@H](CCCCN)NC(=O)[C@H](CC(=O)O)NC(=O)[C@H](CC(C)C)NC(=O)C(C)(C)NC(=O)[C@@H](NC(=O)[C@H](CO)NC(=O)[C@H](Cc1ccc(O)cc1)NC(=O)[C@H](CC(=O)O)NC(=O)[C@H](CO)NC(=O)[C@@H](NC(=O)[C@H](Cc1ccccc1)NC(=O)[C@@H](NC(=O)CNC(=O)[C@H](CCC(=O)O)NC(=O)C(C)(C)NC(=O)[C@@H](N)Cc1ccc(O)cc1)[C@@H](C)O)[C@@H](C)O)[C@@H](C)CC)[C@@H](C)CC)C(C)C)C(=O)N[C@@H](C)C(=O)NCC(=O)NCC(=O)N1CCC[C@H]1C(=O)N[C@@H](CO)C(=O)N[C@@H](CO)C(=O)NCC(=O)N[C@@H](C)C(=O)N1CCC[C@H]1C(=O)N1CCC[C@H]1C(=O)N1CCC[C@H]1C(=O)N[C@@H](CO)C(N)=O |  |  | healthy subjects, single ascending dose | 0.25 mg, day 29 | serum AST | 23 ± 5.4 U/L |

Repeated from above:
| Molecule | tested on | assay | test system | conditions | endpoint | result |
| --- | --- | --- | --- | --- | --- | --- |
| N[C@@H](CCCCNC(=O)OCc1ccc([N+](=O)[O-])cc1)C(=O)N1CCCC1 | Replicase polyprotein 1ab, main protease (rep, Severe acute respiratory syndrome coronavirus 2, UniProt P0DTD1) | viral replication, Gluc reporter | SARS-CoV-2 | 20 µM | inhibition | -0.432% |
